Published values collected from several papers.
A part holds a random share of what one study measured. Positions count from the first letter of the parent shown.
UniProt Q9UQM7, sequence (whole entry, looked up): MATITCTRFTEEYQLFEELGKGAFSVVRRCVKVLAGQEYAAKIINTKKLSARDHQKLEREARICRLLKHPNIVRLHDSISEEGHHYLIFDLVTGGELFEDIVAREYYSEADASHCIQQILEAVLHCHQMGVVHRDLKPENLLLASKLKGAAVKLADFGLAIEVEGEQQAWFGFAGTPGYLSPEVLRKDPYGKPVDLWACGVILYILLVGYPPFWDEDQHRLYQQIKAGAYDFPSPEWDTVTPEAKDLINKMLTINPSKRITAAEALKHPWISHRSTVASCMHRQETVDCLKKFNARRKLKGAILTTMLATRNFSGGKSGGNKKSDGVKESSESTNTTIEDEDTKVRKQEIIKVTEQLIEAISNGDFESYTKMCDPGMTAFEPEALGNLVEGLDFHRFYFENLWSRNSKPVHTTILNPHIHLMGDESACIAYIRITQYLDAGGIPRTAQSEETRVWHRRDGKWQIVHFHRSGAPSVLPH

Set 1 — target: CCND1, cyclin fold, Cln2 fusion (human); method: yeast growth competition, sequencing; sample: yeast; notes: weak parent motif; reference: not given; direction: higher = stronger binding; measurement: normalised enrichment score; starting sequence: viral docking peptide; TSVRRALFTGGSD
T9E: 0.337
S12T: 0.501
G11T: 0.696
A6N: 0.134
G11E: 0.845
R5K: 0.225
R4Q: 0.42
L7K: 0.00901

Set 2 — effect on: peptide-MHC binding; form: peptide; tested at: concentration not given; measurement: binding
Target: HLA class I histocompatibility antigen, C alpha chain, allele C*04:01 (Homo sapiens, UniProt P10321)
FYYNAFHW: inactive
ETVWPFFYA: inactive
FVDVIIIKV: inactive
IQNDLITEF: inactive
FVYSVSFHK: inactive
REMHHLVEF: inactive
GSSDFQVHFLK: inactive
AYPKWKFFL: inactive

Further values, each from its own experiment
CC(C)=CCC/C(C)=C/CC/C(C)=C/CC[C@]1(C)CCc2cc(O)c(C)c(C)c2O1
inhibition (CAMK2A (Homo sapiens, UniProt Q9UQM7); enzyme activity, inhibitor; 10 µM): -1%

Cc1c(C)n(CCN2CCOCC2)c2nc3c(c(N)c12)CCCC3
remaining compound (mouse, microsomes or S9; 2 µM, 0.5 h): 19%

For quick reference, copied from above (set 2):
REMHHLVEF: inactive
IQNDLITEF: inactive
